Measurements collected from several papers.
Lines come from different studies, so protocols differ. Values joined by “and” are separate records of one study, mostly repeats; a detail may differ. ± gives the spread as reported.
MAPK8: Mitogen-activated protein kinase 8 (MAPK8, Homo sapiens, UniProt P45983)
Dipeptidyl peptidase 8: Dipeptidyl peptidase 8 (Homo sapiens, UniProt Q6V1X1)
Cnr2: Cannabinoid receptor 2 (Cnr2, Mus musculus, UniProt P47936)
STING1 H232R: Stimulator of interferon genes protein (STING1, Homo sapiens, UniProt Q86WV6, H232R)

CN(C)c1ccc(-n2cc(COC(=O)[C@@]3(C)C=C(C(=O)OC(C)(C)C)C(=O)CC3)nn2)cc1 gave a fraction bound of 0.222 (MAPK8; D-peptide binding, inhibitor, FP peptide displacement; 200 µM; lower is stronger displacement).
CC(C)(Sc1nc2ncccc2n1Cc1ccc(Br)c2ccccc12)C(=O)O has an IC50 of -0.478 log µM (Solute carrier family 22 member 12 (SLC22A12, Homo sapiens, UniProt Q96S37); urate uptake, inhibitor; HEK293T; 10 min, 37 °C, with: 10 µM [14C]urate).
COC(=O)[C@@]1(Cc2ccccc2)C=C(C(=O)OC(C)(C)C)C(=O)CC1 gave a fraction bound of -0.0933 (MAPK8; D-peptide binding, inhibitor, FP peptide displacement; 250 µM; lower is stronger displacement).
Under “isoTOP-ABPP competition ratio”, CCCCCCCCCCCCC/C=C/C=O is recorded as 1.1 (Protein phosphatase 1G (Homo sapiens, UniProt O15355); competitive isoTOP-ABPP, measured: PPM1G cysteine peptide; Ramos soluble proteome; 100 µM, with: iodoacetamide probe; baseline: DMSO over compound-treated, higher = stronger cysteine blockade).
Under “activity vs control”, O=C(CN1CCOCC1)N1CCN(CC(OCc2ccc3ccccc3c2)c2ccc(Cl)cc2Cl)CC1 (stereo not shown) is recorded as 107% (Serine/threonine-protein kinase ULK1 (ULK1, Homo sapiens, UniProt O75385); enzyme activity, inhibitor, ADP detection; 0.1 µM).
For CCCCCC(O)/C=C/C=O (stereo not shown), “isoTOP-ABPP competition ratio” read 8.9 (REEP5 (Homo sapiens, UniProt Q00765); competitive isoTOP-ABPP; proteome, soluble, MDA-MB-231; 100 µM, 60 min, with: iodoacetamide probe; baseline: DMSO over compound-treated, higher = stronger cysteine blockade).
The fraction bound of COC(=O)[C@@]1(C)C=C(C(=O)OC(C)(C)C)C(=O)CC1 is reported as 0.768 (MAPK8; D-peptide binding, inhibitor, FP peptide displacement; 31.25 µM; lower is stronger displacement).
With CCC1(CC)C(=O)N(c2cccc(CN3CCN(Cc4cccc5cccnc45)CC3)c2)C1=O the selectivity ratio was 0.2 (Dipeptidyl peptidase 8; inhibitor; with: GP-AMC substrate; baseline: Ki' DPP9 over Ki' DPP8).
For Cn1c(=O)n(C2CCC(=O)NC2=O)c2ccc(C3CCN(CC(=O)Nc4cccc(CS(=O)(=O)N5CC[C@H](Nc6cccc(-c7sc(C(=O)O)c(OCC(=O)O)c7Cl)c6)CC5(C)C)c4)CC3)cc21 (stereo partly shown), “BLI binding response” read 0.394 a.u. (Tyrosine-protein phosphatase non-receptor type 2 (PTPN2, Homo sapiens, UniProt P17706, H30A/P33A/R35A); degrader, bio-layer interferometry; 500 nM; higher = more binding).
With CC(=O)N[C@H]1[C@H]([C@H](O)[C@H](O)CNC(=O)c2ccc(-c3ccccc3)cc2)O[C@@](OCc2cn(CC(O)Cn3c([N+](=O)[O-])cnc3C)nn2)(C(=O)O)C[C@@H]1O (stereo partly shown) the ΔH was -8.26 ± 0.4 kcal/mol (B-cell receptor CD22 (CD22, Homo sapiens, UniProt P20273); isothermal titration calorimetry).
C#CCOC(=O)[C@@]1(C)C=C(C(=O)OC(C)(C)C)C(=O)CC1: “normalized kinase activity” 0.741 and 0.675 and 0.682 (Mitogen-activated protein kinase 1 (MAPK1, Homo sapiens, UniProt P28482); enzyme activity, D-SENSOR; 133.3 µM, single replicate).
The Emax of CCOC(=O)C(CC)(CCCSCCOCCOCCNC(=O)OC(C)(C)C)NC(=O)c1ccc(C2CC2)c(Cc2ccc(F)cc2)n1 (racemic) is reported as 81% (Cnr2; cAMP, agonist).
COc1ncc2nc(C)n(Cc3ncc(S(N)(=O)=O)cc3F)c2c1-c1ccccc1 has an activation of 12.3% (Endothelin-1 receptor (EDNRA, Homo sapiens, UniProt P25101); agonist, cell-based; 10 µM).
CCCCCCCC/C=C\CCCCCCCC(=O)NCCO — result for “maximal open probability”: 0.77 ± 0.17 (Transient receptor potential cation channel subfamily V member 1 (Trpv1, Mus musculus, UniProt Q704Y3, S511T); ion current, agonist, whole-cell patch clamp; S511T; baseline: 3 mM 2-APB).
With O=C(N1CCCC1)n1cc(-c2ccc(-c3ccccc3)cc2)nn1 the SILAC ratio was 1.27 and 0.98 and 1.24 and 1.29 (Isoamyl acetate-hydrolyzing esterase 1 homolog (Iah1, Mus musculus, UniProt Q9DB29); probe labelling, inhibitor, competitive ABPP-SILAC, measured: Iah1; mouse T cells; concentration not given, 4 h, in situ, single peptide; baseline: treated over DMSO, lower = more inhibition).
CC[C@H](C)[C@@H]1NC(=O)[C@H](Cc2c[nH]c3ccccc23)NC(=O)[C@H](C)NC(=O)[C@H](Cc2ccc(O)cc2)NC(=O)CNC(=O)[C@H](Cc2ccccc2)N(C)C(=O)[C@H](C)N(C)C(=O)[C@H](Cc2ccc(O)cc2)NC(=O)[C@H](C(C)C)NC(=O)[C@H](CC(C)C)NC(=O)[C@H](Cc2ccccc2)NC(=O)CSC[C@@H](C(=O)NCC(N)=O)NC1=O gave a ΔTm of 0.45 °C (STING1 H232R; thermal stability, DSF; 50 µM).
O=C1c2sc(-c3ccc(N4CCC(CO)CC4)nc3F)nc2CCN1c1cccnc1 gave a specific binding of 3.97 nM and 5.1 nM (TAR DNA-binding protein 43, aggregated (TARDBP, Homo sapiens, UniProt Q13148); radioligand binding; human, FTLD-TDP type B extract; with: radioligand 18.97 nM).
The Emax of CCOC(=O)C(CC)(CCCSCCOCCNc1ccc([N+](=O)[O-])c2nonc12)NC(=O)c1ccc(C2CC2)c(Cc2ccc(F)cc2)n1 (stereo not shown) is reported as 118% (Cnr2; cAMP, agonist).
O=C(Cc1ccc(OCc2ccccc2)cc1)NC1(C(=O)O)CCN(C(=O)c2ccc(-c3cccc(Cl)c3)cc2)CC1 — result for “activity vs control”: 90% (Serine/threonine-protein kinase VRK1 (VRK1, Homo sapiens, UniProt Q99986); enzyme activity, inhibitor; 10 µM).
The residence time of CSc1cc(C)[nH]c(=O)c1CNC(=O)c1cc(Cl)c2c(c1C)OC(C)(C1CCC(N(C)C)CC1)O2 (stereo not shown) is reported as 138000 min (Histone-lysine N-methyltransferase EZH2 (EZH2, Homo sapiens, UniProt Q15910); binding, TR-FRET; with: H3K27me3 activating peptide).
For CCCCCC=CC=C1C(=O)C=CC1CC=CCCCC(=O)O (stereo not shown), “isoTOP-ABPP competition ratio” read 2.7 (Myosin regulatory light chain 12B (MYL12B, Homo sapiens, UniProt O14950); competitive isoTOP-ABPP, measured: MRLC2 cysteine peptide; Ramos soluble proteome; 100 µM, with: iodoacetamide probe; baseline: DMSO over compound-treated, higher = stronger cysteine blockade).
Cc1cn(CC(=O)N(CC(=O)N[C@H]2COC[C@@H]2N(CC(=O)NCCOCCOCC(N)=O)C(=O)Cn2cnc3c(N)ncnc32)[C@H]2COC[C@@H]2NC(=O)CN(C(=O)Cn2cnc3c(N)ncnc32)[C@H]2COC[C@@H]2NC(=O)CN(C(=O)Cn2cnc3c(=O)[nH]c(N)nc32)[C@H]2COC[C@@H]2NC(=O)CN(C(=O)Cn2cc(C)c(=O)[nH]c2=O)[C@H]2COC[C@@H]2NC(=O)CN(C(=O)Cn2cnc3c(=O)[nH]c(N)nc32)[C@H]2COC[C@@H]2NC(=O)CN(C(=O)Cn2cc(C)c(=O)[nH]c2=O)[C@H]2COC[C@@H]2NC(=O)CN(C(=O)Cn2cnc3c(N)ncnc32)[C@H]2COC[C@@H]2NC(=O)CN(C(=O)Cn2cnc3c(=O)[nH]c(N)nc32)[C@H]2COC[C@@H]2N)c(=O)[nH]c1=O has a Tm of 71.2 ± 0.1 °C (complementary RNA; duplex formation, UV melting curve fit; PBS; 1 µM, fit parameter α 0.5).
With CC[C@H](C)[C@@H]1NC(=O)[C@H](Cc2ccc(O)cc2)NC(=O)[C@H](Cc2ccccc2)NC(=O)[C@H](C(C)C)NC(=O)[C@H](Cc2ccccc2)NC(=O)CSC[C@@H](C(=O)N[C@@H](Cc2c[nH]cn2)C(N)=O)NC(=O)[C@H](CC(N)=O)NC(=O)[C@H](Cc2c[nH]c3ccccc23)NC1=O the ΔTm was 9.34 °C (STING1 H232R; thermal stability, DSF; 200 µM).
With C[Si](C)(C)C[C@@H](CN)CC(=O)O the inhibition was -7% (glycine receptor, rat; binding, radioligand binding; 75 µM).
With Cc1cc(C)cc(COc2cc3c(cc2OCc2cc(C)cc(C)c2)C2CC(O)(Cc4cn(CCOCCOCCNC(=O)CCCCC5SCC6NC(=O)NC65)nn4)CC(C)N2CC3)c1 (stereo not shown) the SILAC ratio was 2.06 (Basigin (BSG, Homo sapiens, UniProt P35613); biotinylated probe pull-down; 10 µM probe; baseline: heavy over light).
COC(=O)[C@@]1(C)C=C(C(=O)Nc2cccc(C(=O)Nc3ccc(Nc4nccc(-c5cccnc5)n4)c(C)c3)c2)C(=O)CC1 has a remaining activity of 1.12 and 1.03 and 1.26 (Mitogen-activated protein kinase 14 (MAPK14, Homo sapiens, UniProt Q16539); enzyme activity, inhibitor; 0.02032 µM, unit not given; baseline: vehicle).
CCCC1(C)C(=O)N(c2cccc(CN3CCN(Cc4ccc(Br)cc4)CC3)c2)C1=O: “activity vs control” 9.5% (Dipeptidyl peptidase 8; enzyme activity, inhibitor; 5 µM).
With CC(C)Oc1cc(Cl)ccc1CNc1cc(-c2ccccc2)nc2ncnn12 the cAMP luminescence was 40900 a.u. and 27100 a.u. and 24600 a.u. and 28400 a.u. (G-protein coupled receptor 3 (GPR3, Homo sapiens, UniProt P46089, M156A); cAMP level, cAMP GloSensor; 300 nM; higher = more cAMP).

A few entries again:
Cc1cn(CC(=O)N(CC(=O)N[C@H]2COC[C@@H]2N(CC(=O)NCCOCCOCC(N)=O)C(=O)Cn2cnc3c(N)ncnc32)[C@H]2COC[C@@H]2NC(=O)CN(C(=O)Cn2cnc3c(N)ncnc32)[C@H]2COC[C@@H]2NC(=O)CN(C(=O)Cn2cnc3c(=O)[nH]c(N)nc32)[C@H]2COC[C@@H]2NC(=O)CN(C(=O)Cn2cc(C)c(=O)[nH]c2=O)[C@H]2COC[C@@H]2NC(=O)CN(C(=O)Cn2cnc3c(=O)[nH]c(N)nc32)[C@H]2COC[C@@H]2NC(=O)CN(C(=O)Cn2cc(C)c(=O)[nH]c2=O)[C@H]2COC[C@@H]2NC(=O)CN(C(=O)Cn2cnc3c(N)ncnc32)[C@H]2COC[C@@H]2NC(=O)CN(C(=O)Cn2cnc3c(=O)[nH]c(N)nc32)[C@H]2COC[C@@H]2N)c(=O)[nH]c1=O has a Tm of 71.2 ± 0.1 °C (complementary RNA; duplex formation, UV melting curve fit; PBS; 1 µM, fit parameter α 0.5).
With CC[C@H](C)[C@@H]1NC(=O)[C@H](Cc2ccc(O)cc2)NC(=O)[C@H](Cc2ccccc2)NC(=O)[C@H](C(C)C)NC(=O)[C@H](Cc2ccccc2)NC(=O)CSC[C@@H](C(=O)N[C@@H](Cc2c[nH]cn2)C(N)=O)NC(=O)[C@H](CC(N)=O)NC(=O)[C@H](Cc2c[nH]c3ccccc23)NC1=O the ΔTm was 9.34 °C (STING1 H232R; thermal stability, DSF; 200 µM).
